# Measured values of several laboratories.
# Each line is one published result; not all experiments were run side by side. “And” joins repeats or separate records; there may be more than shown. ± gives the spread as reported.
SMILES,cell line,assay,conditions,how to read,quantity,result
CCOC(=O)C1=C(C)NC2=C(C(=O)OC(c3ccc(OC)c(OC)c3)C2)C1c1ccc([N+](=O)[O-])cc1 (centres unmarked),J774.A1,cytotoxicity,,,EC50,> 20 µM
Cc1cnc(NC2CCOCC2)nc1-n1cnc(C(=O)NC(CN)c2cc(F)cc(Cl)c2)c1 (centres unmarked),MINO,flow cytometry,"1 µM, 48 h",,G1 phase cells,48.5%
CCCCc1nc2c(N)nc3ccccc3c2n1Cc1ccc(N)cc1,human PBMC,ELISA,concentration not given,reference: resiquimod,IFN-α induction,~10 fold
CCCCC[C@H](O)/C=C/[C@H]1C(=O)C[C@H](O)[C@@H]1C/C=C\CCCC(=O)O,"HEK293-A2AR cells, SLCO2A1 knockout",HTRF cAMP,50 nM,,HTRF cAMP signal,328 a.u. and 335 a.u. and 336 a.u.
O=C(/C=C/C=C/C=C/C1CCCCC1)NC1=C[C@@](O)(/C=C/C=C/C=C/C(=O)NC2=C(O)CCC2=O)[C@@H]2O[C@@H]2C1=O,snuc5,"cell growth, inhibitor, CellTiter-Glo luminescence",78 h,reference: day 0 cell count,GI50,13.6 µM
CCn1cc(-c2cc(Cn3ccoc3=N)cc3c2CCN([C@@H](C)c2cc(OC)ccn2)C3=O)c(C(F)(F)F)n1,NCI-H520,"cell growth, inhibitor",120 h,,EC50,1.27 µM
O=C(Nc1nnc2n3c(Cc4ccccc4)n[nH]c3nc(-c3ccc(Cl)cc3)c1-2)c1ccccc1,MDA-MB-435,SRB,"10 µM, NCI60 single-dose screen",reference: untreated,cell growth,101%
CCc1cnc(N2CCC(c3nc(COc4ccc(-n5cnnn5)cc4)cs3)CC2)nc1,HEK293T,"RNA-seq, item: CBX4 mRNA","10 µM, 6 h",reference: vehicle,log2 fold change,-0.0979
COc1cc(/C=C/C(=O)N2CCC=CC2=O)cc(OC)c1OC,MDA-MB-468,"qRT-PCR, item: GSR","30 µM, 6 h",reference: time zero,mRNA level,86.1 ± 12%
Cn1cc(-c2ccc(-c3cncc(Cl)c3N3CCC4(CCNC4=O)CC3)cc2)cn1,COLO 205,"microarray, item: NRF2","concentration not given, 4 h",reference: untreated cells,fold change in expression,-1.16
COc1cnc2cccc(N3CCc4c(cc(Cn5ccnc5C)cc4-c4cn(C)nc4C(F)(F)F)C3=O)c2c1,MOLM-13,"cell growth, inhibitor",120 h,,EC50,0.49 µM
CN(C)c1ncnc2c1ncn2[C@@H]1O[C@H](CO)[C@@H](O)[C@H]1O,mock-transfected cells,"TGFα shedding, agonist",1 µM,reference: unstimulated vehicle control,AP-TGFα release,5.52% and 5.62% and 4.3%
CC/C(=N\NC(=O)NCc1cccc(O)c1)c1ccc(O)c(C)c1O,SK-OV-3,"gene expression, microarray, item: MMP1","10 µM, 24 h",reference: DMSO,log ratio,-4.6
Cc1nn(-c2nc3c(F)cc(F)cc3s2)c(O)c1C(c1ccccc1C(F)(F)F)c1c(C)nn(-c2nc3c(F)cc(F)cc3s2)c1O,THP1-Dual,IFN luciferase reporter,"40 µM, added: HT-DNA",,inhibition,101%
CCCCN1CCN(c2ccc3[nH]c(-c4ccc5[nH]c(-c6ccc(C(F)(F)F)cc6)nc5c4)nc3c2)CC1,MDA-MB-435,SRB,"10 µM, 48 h",,growth percent,-85.3%
C[C@@H]1CN(C(=O)c2ccc(NC(=O)c3cc(O[C@H](C)c4c(Cl)ccc(F)c4Cl)c(N)nn3)cc2)C[C@H](C)N1,Aska-SS (ALK exon 2-17 deletion),cell viability,,,Emax,80.8%
O=P(O)(O)C(O)(Cn1ccnc1)P(=O)(O)O,hFOB 1.19,AlamarBlue,"15 µM, 72 h",reference: control,viability,99 ± 2%
Cn1cc(Nc2nccc(-c3ccc4c(c3)CN(C3COC3)CC[C@H]4NC(=O)c3cn(C(C)(C)C)nn3)n2)cn1,human B cells,,"100 nM, 64 h, stimulation-downregulated genes, added: CD40L, anti-IgM, IL-21",,number of unchanged genes,1350
CCn1cc(-c2cc(Cn3ccnc3)cc3c2CCN([C@H](c2cc(OC)ccn2)C2CC2)C3=O)c(C(F)(F)F)n1,OVK18,"cell growth, inhibitor",120 h,,EC50,4.17 µM
CC(C)NCC(O)c1ccc(O)c(O)c1 (centres unmarked),mouse ventricular cardiomyocytes,,"dose not given, 0.203 s",,sarcomere length,1.74 µm
